Assay results of several laboratories.
Each numbered part is a random draw from the data of one study; scales do not carry over between parts.
Sequence of UniProt P00519 (whole entry, unmodified, looked up): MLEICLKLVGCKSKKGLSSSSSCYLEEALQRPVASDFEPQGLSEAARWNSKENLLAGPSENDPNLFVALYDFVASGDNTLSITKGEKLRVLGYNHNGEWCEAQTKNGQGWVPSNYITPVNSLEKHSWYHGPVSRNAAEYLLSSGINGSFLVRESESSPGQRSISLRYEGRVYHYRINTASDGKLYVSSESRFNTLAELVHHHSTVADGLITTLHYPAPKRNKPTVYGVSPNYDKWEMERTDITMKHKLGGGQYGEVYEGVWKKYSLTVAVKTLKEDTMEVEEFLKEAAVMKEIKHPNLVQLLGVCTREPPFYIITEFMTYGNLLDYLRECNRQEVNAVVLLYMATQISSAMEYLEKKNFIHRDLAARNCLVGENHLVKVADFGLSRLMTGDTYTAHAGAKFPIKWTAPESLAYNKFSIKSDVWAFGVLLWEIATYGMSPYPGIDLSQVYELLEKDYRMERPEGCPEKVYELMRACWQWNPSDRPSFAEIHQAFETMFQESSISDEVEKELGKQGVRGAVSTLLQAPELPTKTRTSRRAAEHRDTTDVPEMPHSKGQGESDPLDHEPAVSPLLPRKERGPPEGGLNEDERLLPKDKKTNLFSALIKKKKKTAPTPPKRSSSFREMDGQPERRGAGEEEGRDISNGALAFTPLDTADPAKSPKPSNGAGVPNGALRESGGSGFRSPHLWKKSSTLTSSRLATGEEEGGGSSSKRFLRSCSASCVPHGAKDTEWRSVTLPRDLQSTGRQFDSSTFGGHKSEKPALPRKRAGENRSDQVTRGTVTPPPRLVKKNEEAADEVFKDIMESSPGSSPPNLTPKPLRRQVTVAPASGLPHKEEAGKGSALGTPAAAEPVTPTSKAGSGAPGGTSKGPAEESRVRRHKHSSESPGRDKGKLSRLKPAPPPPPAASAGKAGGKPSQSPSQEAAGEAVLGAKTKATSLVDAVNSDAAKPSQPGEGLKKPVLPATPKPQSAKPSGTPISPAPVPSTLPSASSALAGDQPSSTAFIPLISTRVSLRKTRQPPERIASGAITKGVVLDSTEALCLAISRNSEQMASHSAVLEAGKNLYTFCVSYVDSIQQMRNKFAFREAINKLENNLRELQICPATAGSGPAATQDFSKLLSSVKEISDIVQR
Sequence of UniProt O00506 (whole entry, looked up): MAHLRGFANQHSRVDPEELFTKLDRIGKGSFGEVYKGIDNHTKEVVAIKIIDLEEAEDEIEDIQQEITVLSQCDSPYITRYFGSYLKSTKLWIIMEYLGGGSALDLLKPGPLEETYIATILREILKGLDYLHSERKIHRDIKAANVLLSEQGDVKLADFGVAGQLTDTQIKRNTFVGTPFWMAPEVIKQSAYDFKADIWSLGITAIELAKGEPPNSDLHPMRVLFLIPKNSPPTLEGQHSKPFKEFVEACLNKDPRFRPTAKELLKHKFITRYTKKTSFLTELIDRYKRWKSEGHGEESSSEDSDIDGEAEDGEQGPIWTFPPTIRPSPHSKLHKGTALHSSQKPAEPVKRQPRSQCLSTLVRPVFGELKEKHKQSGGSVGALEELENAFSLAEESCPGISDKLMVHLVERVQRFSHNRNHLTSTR

Block 1
Target: Protein C-ets-1, full length (ETS1, Homo sapiens, UniProt P14921, residues 1-441)
Sequence of UniProt P14921 (whole entry, looked up): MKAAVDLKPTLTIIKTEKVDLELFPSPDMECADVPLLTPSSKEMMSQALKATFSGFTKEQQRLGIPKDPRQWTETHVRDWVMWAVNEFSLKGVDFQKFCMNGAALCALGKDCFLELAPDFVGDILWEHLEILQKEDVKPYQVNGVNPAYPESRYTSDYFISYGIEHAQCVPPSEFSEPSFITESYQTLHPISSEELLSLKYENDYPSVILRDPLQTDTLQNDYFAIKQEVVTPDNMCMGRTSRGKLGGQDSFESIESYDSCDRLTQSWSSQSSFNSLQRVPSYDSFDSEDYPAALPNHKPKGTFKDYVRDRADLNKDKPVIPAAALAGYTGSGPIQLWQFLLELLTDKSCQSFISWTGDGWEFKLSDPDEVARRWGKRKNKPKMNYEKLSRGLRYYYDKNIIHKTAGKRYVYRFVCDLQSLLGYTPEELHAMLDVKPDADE
Method: protein-binding microarray
Form: hairpin DNA
Sample: in vitro
Concentration: not given
Notes: whole hairpin DNA, median over replicate spots
Relative to: not given
Direction: higher = stronger binding
Quantity: median fluorescence
All sequences stand within: GAGGCCA … TGGCCTCACACTC
Oligonucleotide = GCCGGCGGTTGCCTCCTGGCAACCGCCGGC (5mC at 31); result = 602 a.u.
Oligonucleotide = GCCGGACGTTGCCTCCTGGCAACGTCCGGC (5mC at 14); result = 2420 a.u.
Oligonucleotide = GTCGGAAGTCGCCTCCTGGCGACTTCCGAC (5mC at 17); result = 4460 a.u.
Oligonucleotide = GTCGGAAGTTGCCTCCTGGCAACTTCCGAC (5mC at 34); result = 4490 a.u.
Oligonucleotide = GTCGGACGTTGCCTCCTGGCAACGTCCGAC (5mC at 30); result = 767 a.u.
Oligonucleotide = GTCGGAGGTTGCCTCCTGGCAACCTCCGAC; result = 594 a.u.
Oligonucleotide = CCCGGAAGTTGCCTCCTGGCAACTTCCGGG; result = 8760 a.u.
Oligonucleotide = GCCGGAAGTTGCCTCCTGGCAACTTCCGGC (5mC at 10); result = 876 a.u.

Block 2
Target: Transcription factor SOX-2, HMG box (SOX2, Homo sapiens, UniProt P48431, residues 19-118)
Sequence of UniProt P48431 (19-118, looked up): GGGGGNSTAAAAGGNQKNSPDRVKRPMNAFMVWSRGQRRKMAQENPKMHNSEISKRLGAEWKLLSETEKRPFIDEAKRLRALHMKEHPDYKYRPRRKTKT
Method: protein-binding microarray
Form: double-stranded DNA, one strand shown
Sample: in vitro
Concentration: not given
Notes: k-mer, scored over probes, only values ≥0.25
Direction: higher = stronger binding
Quantity: E-score
Oligonucleotide = ATTGACC; result = 0.304
Oligonucleotide = AATAGTC; result = 0.287
Oligonucleotide = AAAGCTG; result = 0.322
Oligonucleotide = AGTCAAT; result = 0.344
Oligonucleotide = AATGCAA; result = 0.288
Oligonucleotide = ATAAATG; result = 0.327
Oligonucleotide = GATTGAA; result = 0.302
Oligonucleotide = CATTGTC; result = 0.466

Further values, each from its own experiment
Relative to: control
Compound = CCC(=NO)C(C)=Cc1ccc(F)c(C)c1; target = Tyrosine-protein kinase ABL1 (ABL1, Homo sapiens, UniProt P00519, F317I); test = KINOMEscan; conditions = 1 µM, F317I mutant, nonphosphorylated; quantity = remaining binding; result = 100%
Compound = COc1ccc(OC)c2c(=S)c3ccccc3[nH]c12; target = Serine/threonine-protein kinase 25 (STK25, Homo sapiens, UniProt O00506); test = enzyme activity, inhibitor; conditions = 0.5 µM; quantity = remaining activity; result = 96.2%

Some of these lines once more (further values, each from its own experiment):
Compound = COc1ccc(OC)c2c(=S)c3ccccc3[nH]c12; target = Serine/threonine-protein kinase 25 (STK25, Homo sapiens, UniProt O00506); test = enzyme activity, inhibitor; conditions = 0.5 µM; quantity = remaining activity; result = 96.2%
Compound = CCC(=NO)C(C)=Cc1ccc(F)c(C)c1; target = Tyrosine-protein kinase ABL1 (ABL1, Homo sapiens, UniProt P00519, F317I); test = KINOMEscan; conditions = 1 µM, F317I mutant, nonphosphorylated; quantity = remaining binding; result = 100%
